Published values collected from several papers.
Parts stem from different laboratories: compare values within a part only. Changes are numbered by the printed parent chain.

Sample 1 — method: RNA Bind-n-Seq; molecule type: RNA; medium: in vitro; concentration: 365 nM; relative to: no-protein control; direction: higher = stronger binding; endpoint: RBNS enrichment (R)
Target: RNA binding protein fox-1 homolog 2, RRM domain, GST-SBP tag (RBFOX2, Homo sapiens, UniProt O43251-10, residues 100-194)
Setting: natural RNA segment, single round, ends assumed
Residues (chain): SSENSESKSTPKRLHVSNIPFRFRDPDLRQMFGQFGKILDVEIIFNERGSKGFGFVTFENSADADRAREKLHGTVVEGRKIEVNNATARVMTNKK
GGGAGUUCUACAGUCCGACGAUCUACUUGGACCCUCAGAUCUUCUUUUCUAAUAGCCAUUUGCCACCCCAAGUGGUAUGUCGGCCAUUUCUCCUUAAAACACCUUCCCUACCUUUCCCAUGUACUCAGUUUAGUGGAAUUCUCGGGUGCCAA: 0.437
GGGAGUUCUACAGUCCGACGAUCGGUCCUGUGUUCAAUUCCCAGCAACCACAUGGUGGCUCACAACCAUCCGUAAUGAGAUCUGAUGCCCUCUUCUGGUGUGUCUGAAGAGAGCUACAGUGUACUCAUAUAAAUGGAAUUCUCGGGUGCCAA: 0.319
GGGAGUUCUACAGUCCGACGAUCUUCUUCUCCCUCCAACCAGAGUUGUGUCUAACUUUAGGCAUCUUUUAAUAAAUGUCAUUGCGACUCUAUGACCGGUGUGGUUAAAGAGAAGGGCAGGGGCGUUCUGGAGGUGGAAUUCUCGGGUGCCAA: 0.352
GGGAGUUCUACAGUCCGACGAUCGAGGAGGGUUUAUAUACCCCAUGACCCUGCGGCUUCUUGGCGCCUCCUGCCCAUGAGGAUCACAUCCUGUCUCUCCUUGCUUCCAUCUCUCAUCACUGCCCUUGGACUUCUGGAAUUCUCGGGUGCCAA: 0.549
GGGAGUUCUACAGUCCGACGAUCAACAAAACAAAACCUGAGAAAAUGCAAAACUGGAACUUUUUGCAAUAUUCUGAAAGAUAAUCUUCCUUUGGCUCAUUCUAUGACAUGUACAACUCUUAAGAAAGCCAUACUGGAAUUCUCGGGUGCCAA: 0.83
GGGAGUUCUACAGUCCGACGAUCCUGGGUGAAUGAUCAGACCCUGGUAGCUAAGAAGGAACUUGUCCCUUUGAGUCAGUGUGCAGACCCCCUUUCAGGCCAUGCCUCUGUGAACCCUGUAUUGCUGGGGCCGGUGGAAUUCUCGGGUGCCAA: 1.97
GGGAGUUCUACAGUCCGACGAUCUGUGUGGAAGAAGCCAUUUUGUACUGCUUUAAAGUUAGACUAAUAUUCUCAGCACGGGUGUAUGGGGACCUCAUUACCUAUUUUUUUCAUCAUUUACCCUAGGUAAGAACUGGAAUUCUCGGGUGCCAA: 0.573
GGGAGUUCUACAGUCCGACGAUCCACCGCUGUGUCGCCAGUGUGCUCACUAACAAGCCCCGCCACCUAACCCAGUGUGUUUUUACUAAGUCUCAGCCCUUUCCCCCACCCCUUUUUCUUCUCUCUUCCUUUUAUGGAAUUCUCGGGUGCCAA: 0.713

Sample 2 — target: MAFF, bZIP domain (human); method: DHFR protein complementation; medium: yeast; relative to: wild-type JUN-FOS pair; direction: higher = stronger binding; endpoint: binding fitness
Setting: single substitutions, most at no-binding floor
Starting sequence: JUN, bZIP domain (human); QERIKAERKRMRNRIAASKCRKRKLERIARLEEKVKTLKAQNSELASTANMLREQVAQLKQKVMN; partner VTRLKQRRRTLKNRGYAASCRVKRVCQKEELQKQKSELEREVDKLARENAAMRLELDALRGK
Q41T: -1.47 natural log
T37L: -1.23 natural log
L31N: -1.49 natural log
E54W: -1.35 natural log
A40V: -1.29 natural log
K39C: -1.47 natural log
E32L: -1.47 natural log
K39S: -1.3 natural log

Sample 3 — method: aptamer microarray, sandwich; molecule type: DNA with 2'F-ANA; medium: in vitro; concentration: 200 nM; with: Cy3 exosite-II aptamer, 400 nM; direction: higher = stronger binding; endpoint: mean fluorescence intensity; sequence: GGTTGGTGTGGTTGG
Target: Prothrombin, mature alpha-thrombin (F2, Homo sapiens, UniProt P00734)
Setting: whole 15-mer aptamer, many near background
2'F-ANA at 1 2 4 5 6 9 10 11: 63 a.u.
2'F-ANA at 4 8 9 10 13 14 15: 67.2 a.u.
2'F-ANA at 1 3 4 5 6 13 14: 44.9 a.u.
2'F-ANA at 1 3 4 6 8 10 12 13 14: 85.9 a.u.
2'F-ANA at 5 7 11 12 14: 44.4 a.u.
2'F-ANA at 1 2 4 5 7 8 13 14: 43.6 a.u.
2'F-ANA at 1 3 6 8 9 12: 531 a.u.
2'F-ANA at 1 3 5 6 7 8 10 15: 52.3 a.u.

Mixed results
Clc1ccccc1CN1CCc2sccc2C1 — infection rate (Plasmodium berghei; inhibitor; Huh-7, GFP-expressing, liver stage; 10 µM, 24 h; relative to: untreated control): 95.4%
